# Experimental data of several laboratories.
# Numbered parts are unrelated; each lists some results of a single study. Changes are numbered by the printed parent chain.

# Block 1
# Target: CCNF, cyclin fold, Cln2 fusion (human)
# Technique: yeast growth competition, sequencing
# Sample: yeast
# Notes: strong parent motif
# Relative to: not given
# Reading: higher = stronger binding
# Parent: MICAL3 docking peptide (human); LQLRRQLSFSEDS
Variant,normalised enrichment score
E11A,6.11
L7V,0.434
L7I,2.02
L7S,-0.295
S10I,4.96
L3Y,4.76
R4S,2.71
E11I,5.2
S8P,1.29
R4C,5.2
R4P,2.88
R4T,0.593
L3I,6.53
D12Y,6.6
L7H,0.0903
F9K,0.403
R4D,0.207
F9G,-0.185
S10K,4.07
R4M,1.69
E11S,5.38
R4Q,2.93
L3M,3.49
S8F,8.28
L3K,0.56

# Block 2
# Target: Sal-like protein 4, full length isoform A (SALL4, Homo sapiens, UniProt Q9UJQ4, residues 1-1053)
# UniProt Q9UJQ4, sequence (whole entry, looked up): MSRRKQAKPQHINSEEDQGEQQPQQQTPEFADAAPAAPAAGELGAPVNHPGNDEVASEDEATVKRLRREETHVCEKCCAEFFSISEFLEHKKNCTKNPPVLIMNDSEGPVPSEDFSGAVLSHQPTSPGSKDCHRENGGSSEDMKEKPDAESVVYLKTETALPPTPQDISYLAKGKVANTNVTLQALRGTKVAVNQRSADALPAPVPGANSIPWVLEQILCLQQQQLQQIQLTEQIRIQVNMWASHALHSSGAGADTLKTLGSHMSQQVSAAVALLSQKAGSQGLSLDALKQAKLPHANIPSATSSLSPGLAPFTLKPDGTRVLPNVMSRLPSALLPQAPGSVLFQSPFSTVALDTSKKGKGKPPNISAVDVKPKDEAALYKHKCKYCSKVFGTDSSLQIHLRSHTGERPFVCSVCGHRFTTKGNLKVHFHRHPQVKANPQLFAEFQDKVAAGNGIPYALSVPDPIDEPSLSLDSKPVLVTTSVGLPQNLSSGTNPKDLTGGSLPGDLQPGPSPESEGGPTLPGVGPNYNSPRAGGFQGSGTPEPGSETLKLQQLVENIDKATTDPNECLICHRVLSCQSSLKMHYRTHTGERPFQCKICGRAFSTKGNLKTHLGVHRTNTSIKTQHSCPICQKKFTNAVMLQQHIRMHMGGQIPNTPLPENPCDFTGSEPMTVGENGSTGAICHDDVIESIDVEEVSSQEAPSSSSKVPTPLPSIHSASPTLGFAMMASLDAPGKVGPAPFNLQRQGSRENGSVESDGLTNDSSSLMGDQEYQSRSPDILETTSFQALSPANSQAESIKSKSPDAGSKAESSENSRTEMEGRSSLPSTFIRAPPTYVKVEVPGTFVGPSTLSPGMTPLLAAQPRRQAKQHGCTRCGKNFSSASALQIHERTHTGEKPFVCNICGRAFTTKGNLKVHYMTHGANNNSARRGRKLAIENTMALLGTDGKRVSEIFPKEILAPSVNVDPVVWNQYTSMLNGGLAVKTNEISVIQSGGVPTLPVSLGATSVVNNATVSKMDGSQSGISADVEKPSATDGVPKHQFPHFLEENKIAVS
# Technique: universal PBM
# Form: double-stranded DNA, one strand shown
# Sample: in vitro
# Concentration: 600 nM
# Notes: 8-mer, flanks averaged, mean of replicates
# Reading: higher = stronger binding
Oligonucleotide,E-score
GACGCACA,-0.084
AGTATCAT,0.187
AATAATCG,0.332
CTACATTA,0.159
AAGAATCG,0.073
GAAAATAA,0.354
CCGTCTAG,-0.254
CCCTAGGA,-0.204
AGACCCCC,-0.315
GTCAGGGA,-0.127
AATACAGT,0.233
GCTCAGAC,-0.133
GGCACGCC,-0.441
CGGTTTTC,-0.0568
GCTACAAC,-0.144
TGCAATAA,0.324
AGTGGCCA,-0.15
AACAATGT,0.223
TAGAAACA,0.237
AATTGTCG,-0.00566
GGGGAGTA,-0.0675
CATGTTTA,0.239

# Block 3
# Target: RNA binding protein fox-1 homolog 2, RRM domain, GST-SBP tag (RBFOX2, Homo sapiens, UniProt O43251-10, residues 100-194)
# Technique: RNA Bind-n-Seq
# Form: RNA
# Sample: in vitro
# Concentration: 365 nM
# Notes: natural RNA segment, single round, ends assumed
# Relative to: no-protein control
# Reading: higher = stronger binding
# All sequences stand within: GGGAGUUCUACAGUCCGACGAUC … UGGAAUUCUCGGGUGCCAA
# Target sequence (chain): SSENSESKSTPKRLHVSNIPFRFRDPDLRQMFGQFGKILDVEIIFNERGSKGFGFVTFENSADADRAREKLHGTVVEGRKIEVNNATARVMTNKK
Oligonucleotide,RBNS enrichment (R)
UCUUUUCCCAAGUGAAUUCCCUUUUAUUCAUGAGAACAAAAGUACUUAGAUACUAUAAAACCUUAAUUUCCCCAACUUUUAAAAUAAAAUGGAAUAUUUGCUGAAUGAAU,0.834
AAGGGUUUUGUGUUGGCAUGAGUUCUGGAACACAUCUCAGGCUGUCAGAGCAAAGUGAUCCAGAAUGCAACAGGAGCUACCUCCUGUAACCACUACAAUGUCUGUCCUUG,1.17
UUCCCUCCAACAGGAACUCUCUGACCUGUUUAUUCAGGUGUAUUUCUGGUUUGGAUUUUUUUUUCCUUCUUUGUUUUAACAAAUGGAUCCAGGAUGGAUAAAUCCACCGA,0.316
GCAGGACUUUUGUAAUGUUGUCUAAAUGAGGAAACAUUUCUGUCAAAUUAGCCUAGUGAAAUCUCUGAUUGUUCAUUACAAAGGCAGCGUUCACAGCAUUGCUUCUUCUU,0.325
AUUGUGCUCUCUGUGGAACUGAAGUUUGAUUUAUUUUUGUACUACACGGCAUGGGUUUGUUGACACUUUAAUUUUGCUAUAAAUGUGUGGAAUCACAAGUUGCUGUGAUA,1.63
UAUGGUAUCUGUGCUUUUGGCUGGGUAAAAGUACAGCCAGAGACGGCUUACUGGGUUUAGAAUGGAAACAACAUUCACUACUGUUCAGUGCAUGCUGGUACAAUCUCUUA,0.573
UUAUGGGUUAUAUGCCUAAACCCUUAUGCCACAUAGUGGUAAAUAAUUAUGAAAAAUGGUCUGUUCAUAAUUGGUAGGUGCCUUUUGUGAGCAGGGAGCAUAAUUAUUGG,0.365
UUUUCUCCAUAAAGUUUGACAUCUGACCCCAGAUUCUAUGUAAUCAUUAUUAGAAAUUCCUUCUCUCAUUAUUUCAGGAUUAGUAGUUCUGUGUAAUUCAUUUUACAAUU,0.507
GUCAAAGACAAGGAAGACCAAACCACACACUGUAAAAGUCCACUGCUCUGUAGUUUAUGCCAAGACCACAAUGACUCUUUACCCCAAGAAAGUCUCUUGACUUAAGUUCU,0.574
CCGUUCUGUCCCCCAUUCAAGGAAUGACAUUCUCAGUCACCCAGAGCCAUCUGGCCUACCCUCUCAGGAAAUGGGUUGUCCUGUAGAGUUCUCUACCCUUUUAAAGGCAA,0.487
CUCUCCGAGAAAGGGGAGCCAGAGCCGCUCACUGUGGUUCUGUUCCGACCUUGAAGGGGCGGUAUUGGCCUGGCUUCUGGAAUGGACAGAGUCCACCAGGAAAGACUGGG,0.266
UGUAUAAAAUAAAGUGUAGUUUACAAAAAAAAGAAACGUAAAAAAAAAAAACUACAUGCAAAACUGUAGGUAAUGAAAAUGAUGUAUUUUUUUCAUCUUUUUUUGUUAAC,1.07

# Block 4
# Target: Histone acetyltransferase KAT6A, winged helix 1, GST fusion (KAT6A, Homo sapiens, UniProt Q92794, residues 1-85)
# Technique: protein binding microarray
# Form: double-stranded DNA, one strand shown
# Sample: in vitro
# Concentration: not given
# Notes: 8-mer, flanks averaged, mean of 2 arrays, mostly near background
# Relative to: not given
# Reading: higher = stronger binding
# Residues (chain): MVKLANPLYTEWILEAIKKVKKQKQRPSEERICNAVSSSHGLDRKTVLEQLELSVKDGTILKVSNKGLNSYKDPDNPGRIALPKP
Oligonucleotide,E-score
AACATGAA,-0.0605
ATTAAGGA,-0.0161
CGTATGGA,0.031
GAGGCCTA,-0.103
ACTGAAGT,-0.221
ACGCGGTA,0.375
TCGTTAAA,-0.0716
AATTGCCT,-0.172
CCATGGTC,-0.0208
ATTAACAC,-0.122
AATGCAAG,-0.147
CAGCTGCG,0.243
AGAGTCGG,0.0438
ATGCATTC,-0.213
CCGCTCTC,0.248
AATCGTCC,0.185
AAGCGCTC,0.373
CCACTCGC,0.161
ACCTCTAT,-0.0655
AGCTGCGG,0.166
ATGACATA,-0.248
ACGCGCGA,0.419
GATTGAAC,-0.0607
GGAATTCA,-0.233
CTGCGCCC,0.227

# Block 5
# Target: Centromere-binding protein 1, full length, N-terminal tag (CBF1, Saccharomyces cerevisiae, UniProt P17106, residues 1-351)
# UniProt P17106, sequence (whole entry, looked up): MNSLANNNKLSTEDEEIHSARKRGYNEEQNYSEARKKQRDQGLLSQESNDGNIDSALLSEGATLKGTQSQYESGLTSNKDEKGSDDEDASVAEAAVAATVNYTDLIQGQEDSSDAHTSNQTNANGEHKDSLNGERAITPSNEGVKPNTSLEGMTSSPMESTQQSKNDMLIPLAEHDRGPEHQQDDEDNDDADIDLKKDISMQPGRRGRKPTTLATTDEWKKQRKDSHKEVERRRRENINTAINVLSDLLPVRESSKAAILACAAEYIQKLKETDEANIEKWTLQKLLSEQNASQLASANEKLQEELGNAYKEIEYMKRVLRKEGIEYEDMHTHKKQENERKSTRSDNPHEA
# Technique: protein-binding microarray
# Form: double-stranded DNA, one strand shown
# Sample: in vitro
# Concentration: 0.8 µM
# Notes: whole 60-bp probe, no competitor
# Reading: higher = stronger binding
# All sequences stand within: … GTCTTGATTCGCTTGACGCTGCTG
Oligonucleotide,fluorescence intensity
GAAAGGTAACCGCATCACGACTTATCGCATTTCTAG,560 a.u.
CTAAAAAGAATTCATCACCTAAACTCACTAATCTTC,463 a.u.
CCTAACTACTATATGGGCGTGCAATAGCTTCGTACA,507 a.u.
CTATGCCTATTGCGTCATCAGCGACTCCGCGCCTTC,503 a.u.
GAACCTCCGCCACATCAGGTATTGTTCCAACACTAG,527 a.u.
GAAAATATACGGTGTCACCTCCTACTTTTTCCTTAG,493 a.u.
CCTAACTACTATATCCGCGTGTTATAGCTTCGTACA,580 a.u.
TGTACGAAGCTATCACACACGTATATAGTAGTTAGG,545 a.u.
GAAGCGTTTGATCATCTGACCTTTATGATTTTGTAG,2870 a.u.
CTAAACATTTGTCGGATATGACCTCACCTAAGCTTC,518 a.u.
CTAGCTTCCAAACATCAGCTTTCGTTTTAACATTTC,513 a.u.
CTATTTTTTCTTTCTTGCGTGGTATGTTAGAAGTTC,560 a.u.
GAAAGTGGTAAGACCGTCATGATCGCCGCTCACTAG,478 a.u.
GAATAACCAGCGTTGCACGCGTCGTGCGGGTTCTAG,538 a.u.
CCTAACTACTATATACTCGTGAAATAGCTTCGTACA,561 a.u.
CTAAAGCCAATCCATCTGATTGGTCATTTTACGTTC,578 a.u.
GAATTCTACTATCACCTGTTCATGATATTATGGTAG,1590 a.u.
CTATATTTAACGCGTCACCAAATATTAAGTTTGTTC,500 a.u.
CTAATCCACTATAATCAGCTGTTATGACTTAGCTTC,593 a.u.
CTACGGTGGAGCATGCATGTGCTTACTAGAAGTTTC,620 a.u.
CTATTGCTGGCTTGCCACGTGATGGCAATAGGCTTC,10200 a.u.
CTACAGTTTTCCTATCTGTCACCTTTCTAGGTCTTC,562 a.u.
CTAAAAAATTTCCCTCACGAGAATATGGAAATTTTC,588 a.u.
GAAATATTATTTATGCACGTTGCTCATTTAATTTAG,896 a.u.
CTATTTAGTGAACCCAACATCACGAATAAGAAATTC,554 a.u.

# A few entries again (block 3):
Oligonucleotide,RBNS enrichment (R)
UCUUUUCCCAAGUGAAUUCCCUUUUAUUCAUGAGAACAAAAGUACUUAGAUACUAUAAAACCUUAAUUUCCCCAACUUUUAAAAUAAAAUGGAAUAUUUGCUGAAUGAAU,0.834
AAGGGUUUUGUGUUGGCAUGAGUUCUGGAACACAUCUCAGGCUGUCAGAGCAAAGUGAUCCAGAAUGCAACAGGAGCUACCUCCUGUAACCACUACAAUGUCUGUCCUUG,1.17
UUCCCUCCAACAGGAACUCUCUGACCUGUUUAUUCAGGUGUAUUUCUGGUUUGGAUUUUUUUUUCCUUCUUUGUUUUAACAAAUGGAUCCAGGAUGGAUAAAUCCACCGA,0.316
GCAGGACUUUUGUAAUGUUGUCUAAAUGAGGAAACAUUUCUGUCAAAUUAGCCUAGUGAAAUCUCUGAUUGUUCAUUACAAAGGCAGCGUUCACAGCAUUGCUUCUUCUU,0.325
AUUGUGCUCUCUGUGGAACUGAAGUUUGAUUUAUUUUUGUACUACACGGCAUGGGUUUGUUGACACUUUAAUUUUGCUAUAAAUGUGUGGAAUCACAAGUUGCUGUGAUA,1.63
UAUGGUAUCUGUGCUUUUGGCUGGGUAAAAGUACAGCCAGAGACGGCUUACUGGGUUUAGAAUGGAAACAACAUUCACUACUGUUCAGUGCAUGCUGGUACAAUCUCUUA,0.573
UUAUGGGUUAUAUGCCUAAACCCUUAUGCCACAUAGUGGUAAAUAAUUAUGAAAAAUGGUCUGUUCAUAAUUGGUAGGUGCCUUUUGUGAGCAGGGAGCAUAAUUAUUGG,0.365
UUUUCUCCAUAAAGUUUGACAUCUGACCCCAGAUUCUAUGUAAUCAUUAUUAGAAAUUCCUUCUCUCAUUAUUUCAGGAUUAGUAGUUCUGUGUAAUUCAUUUUACAAUU,0.507
GUCAAAGACAAGGAAGACCAAACCACACACUGUAAAAGUCCACUGCUCUGUAGUUUAUGCCAAGACCACAAUGACUCUUUACCCCAAGAAAGUCUCUUGACUUAAGUUCU,0.574
CCGUUCUGUCCCCCAUUCAAGGAAUGACAUUCUCAGUCACCCAGAGCCAUCUGGCCUACCCUCUCAGGAAAUGGGUUGUCCUGUAGAGUUCUCUACCCUUUUAAAGGCAA,0.487
CUCUCCGAGAAAGGGGAGCCAGAGCCGCUCACUGUGGUUCUGUUCCGACCUUGAAGGGGCGGUAUUGGCCUGGCUUCUGGAAUGGACAGAGUCCACCAGGAAAGACUGGG,0.266
UGUAUAAAAUAAAGUGUAGUUUACAAAAAAAAGAAACGUAAAAAAAAAAAACUACAUGCAAAACUGUAGGUAAUGAAAAUGAUGUAUUUUUUUCAUCUUUUUUUGUUAAC,1.07
